Results gathered from unrelated publications.
Numbered parts are unrelated; each lists some results of a single study. Substitutions count along the parent as printed.

Study 1
Target: CCNB3, cyclin fold, Cln2 fusion (human)
Method: yeast growth competition, sequencing
Medium: yeast
Setting: strong parent motif
Reference: not given
Direction: higher = stronger binding
Starting sequence: RBL2 docking peptide (human); STTRRRLFVENDS; partner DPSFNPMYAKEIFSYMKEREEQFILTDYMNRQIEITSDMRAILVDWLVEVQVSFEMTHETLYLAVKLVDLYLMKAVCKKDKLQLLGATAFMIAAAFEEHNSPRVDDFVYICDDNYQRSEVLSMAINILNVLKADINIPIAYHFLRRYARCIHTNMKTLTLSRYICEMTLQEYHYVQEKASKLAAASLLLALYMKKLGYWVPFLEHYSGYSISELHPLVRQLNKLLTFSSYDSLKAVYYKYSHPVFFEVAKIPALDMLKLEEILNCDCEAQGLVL
For `STTRRRGFVENDS [L7G]`, “normalised enrichment score” read -0.531.
`STTRRRLFWENDS [V9W]`: “normalised enrichment score” 1.03.
`STNRRRLFVENDS [T3N]`: “normalised enrichment score” -0.294.
`STTRRRLFVENIS [D12I]` — result for “normalised enrichment score”: 0.909.
For `STTRRRLFCENDS [V9C]`, “normalised enrichment score” read 1.79.
`STYRRRLFVENDS [T3Y]`: “normalised enrichment score” 0.819.
`STTRRRLEVENDS [F8E]`: “normalised enrichment score” 0.108.
`STTRLRLFVENDS [R5L]`: “normalised enrichment score” 0.00645.
Under “normalised enrichment score”, `STTRRRLIVENDS [F8I]` is recorded as 0.195.
For `STTIRRLFVENDS [R4I]`, “normalised enrichment score” read 0.443.
Under “normalised enrichment score”, `STTRRRLFVENCS [D12C]` is recorded as 0.474.
Under “normalised enrichment score”, `STTRARAFVENDS [R5A L7A]` is recorded as -0.00142.
Under “normalised enrichment score”, `SHTRRRLFVENDS [T2H]` is recorded as 1.24.
`STARRRLFVENDS [T3A]` — result for “normalised enrichment score”: 1.79.
`STTNRRLFVENDS [R4N]` — result for “normalised enrichment score”: -0.495.
For `STTRRRLSVENDS [F8S]`, “normalised enrichment score” read 0.0798.

Study 2
Target: Ras GTPase-activating protein-binding protein 1, C-terminal RGG region (G3BP1, Homo sapiens, UniProt Q13283)
UniProt Q13283, sequence (whole entry, looked up): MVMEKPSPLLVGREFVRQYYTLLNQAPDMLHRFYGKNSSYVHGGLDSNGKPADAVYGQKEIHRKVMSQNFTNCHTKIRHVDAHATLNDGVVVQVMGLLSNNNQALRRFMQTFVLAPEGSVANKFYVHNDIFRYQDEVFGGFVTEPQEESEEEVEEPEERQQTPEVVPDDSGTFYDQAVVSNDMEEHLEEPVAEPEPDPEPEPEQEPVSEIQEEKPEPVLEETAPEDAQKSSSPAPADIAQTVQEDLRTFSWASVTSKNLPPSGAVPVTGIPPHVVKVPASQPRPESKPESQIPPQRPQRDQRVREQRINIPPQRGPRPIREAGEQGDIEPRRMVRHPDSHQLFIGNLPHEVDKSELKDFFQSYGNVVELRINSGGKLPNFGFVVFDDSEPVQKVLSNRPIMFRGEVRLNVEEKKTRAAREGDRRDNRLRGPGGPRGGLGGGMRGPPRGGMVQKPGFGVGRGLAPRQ
Method: RNA Bind-n-Seq
Form: RNA
Medium: in vitro
Tested at: 1 µM
Setting: whole 134-nt RNA, ends assumed
Together with: 150 mM KCl
Reference: input library
Direction: higher = stronger binding
`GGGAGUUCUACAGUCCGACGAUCGCAGGAAGUAAAAACAAAUGGAAAUGCUUCGGAUAGUGGCAGGGGUGGGGGUUGCUAAGGAAAGGGUGGGAUGGUAGUGGGUAAAGAGUUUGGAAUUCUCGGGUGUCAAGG` gave a log2 enrichment of 1.09.
`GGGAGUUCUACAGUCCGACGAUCCAAGUCCUGUGCUACACAUCGUAUGUACCGAAUCGGGCCGGGGCCGGGGCCGGGGAAAGUAUUAUGUUACGCCGUUCGGAUCUGCACUUCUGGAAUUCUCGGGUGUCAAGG` gave a log2 enrichment of -1.04.
`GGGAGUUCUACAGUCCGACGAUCAAGUCCUGUGCUACACAUCGUAUGUACCGAAUCGGAAAAAGGAAAGGAAAAAAAGGAAAGUAUUAUGUUACGCCGUUCGGAUCUGCACUUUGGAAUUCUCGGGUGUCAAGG` gave a log2 enrichment of -1.87.
With `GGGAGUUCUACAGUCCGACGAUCCACAGACAACACGCACCCACAAAAACACAGAGGGAAGGGGUUGGGAUGGGGACAGGGUGCACAGCAGGGCGGGGUAGGACCCCAGCCCCUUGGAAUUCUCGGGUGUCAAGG` the log2 enrichment was -0.38.
For `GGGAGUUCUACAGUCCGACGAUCUGGCCCUGGUGGCAUGCGGGGAGGAAGAGGUGGCCUCAUGUAUCGUGGUGGUCCCGGUGGAAUGUUCAGAGGUGGCCGUGGUGGAGACAGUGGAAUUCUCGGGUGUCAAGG`, the log2 enrichment was 1.74.
`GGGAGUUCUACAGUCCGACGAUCUCCUGUGCUACACAUCGUAUGUACCGAAUCGGGGUUUGGGGUUUUUUUGGGGAAAGGGGAAAGUAUUAUGUUACGCCGUUCGGAUCUGCAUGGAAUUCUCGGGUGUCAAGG` gave a log2 enrichment of 2.36.
For `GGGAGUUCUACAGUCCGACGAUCGUCCUGUGCUACACAUCGUAUGUACCGAAUCGGGUUUUUGGGGUUUUUGGUUUUUGGGAAAGUAUUAUGUUACGCCGUUCGGAUCUGCACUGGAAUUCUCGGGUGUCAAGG`, the log2 enrichment was -1.
The log2 enrichment of `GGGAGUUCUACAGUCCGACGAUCUAACUUUAGAGGAGGAUCUGAUGGAUAUGGCAGUGGACCUGGAUUUGGGGAUGGCUAUAAUGGGUAUGGAGGAGGACCUGGAGGUGGCAAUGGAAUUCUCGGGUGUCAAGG` is reported as -1.32.
`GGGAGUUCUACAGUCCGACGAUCGCAGGAAGUAAAAACAAAUGGAAAUGCUUCGGAUAGUGGCAGGGGUGGGGGUUGCCAAGGAAAGGGUGGGAUGGGAGUGGGUAAAGAGUUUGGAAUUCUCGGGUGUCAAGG` has a log2 enrichment of 2.22.
The log2 enrichment of `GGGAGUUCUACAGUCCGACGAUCUGGCCCUGGUGGCAUGCGUGGAGGAAGAGGUGGCCUCAUGGAUCGUGGUGGUCCCGGUGGAAUGUUCAGAGGUGGCCGUGGUGGAGACAGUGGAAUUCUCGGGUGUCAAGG` is reported as 1.49.
The log2 enrichment of `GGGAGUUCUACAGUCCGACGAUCAGUCCUGUGCUACACAUCGUAUGUACCGAAUCAAACCCCCAAACCCAAAUUUUUAAAAAAGUAUUAUGUUACGCCGUUCGGAUCUGCACUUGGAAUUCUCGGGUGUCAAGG` is reported as -0.868.
`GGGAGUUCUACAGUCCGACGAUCCUCAAGUCCUGUGCUACACAUCGUAUGUACCGAAUCGGGAAGGAAGGGAAGGGGAAAGUAUUAUGUUACGCCGUUCGGAUCUGCACUUCCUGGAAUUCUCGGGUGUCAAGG` gave a log2 enrichment of -0.461.
`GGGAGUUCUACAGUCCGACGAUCUCCAGUCUAGCUUUGGAGAAGCGCCAACCUGCUCACUGCCGCCGACCAGACUGCAUGUUUGGUUGUACUUGUUUGAAAAGAAAAGUUGUAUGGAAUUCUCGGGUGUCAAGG` gave a log2 enrichment of -1.03.
With `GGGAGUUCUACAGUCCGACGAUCCACAGACAACACGCACCCACACAGACACAGAGGGAAGGGUUUGGGAUGGGGACAGGGUGCACAGCAGGGCGGGGUAGGACCCCAGCCCCUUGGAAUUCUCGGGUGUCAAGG` the log2 enrichment was -0.471.

Study 3
Target: NFE2, bZIP domain (human)
Method: DHFR protein complementation
Medium: yeast
Setting: single substitutions, most at no-binding floor
Reference: wild-type JUN-FOS pair
Direction: higher = stronger binding
Starting sequence: JUN, bZIP domain (human); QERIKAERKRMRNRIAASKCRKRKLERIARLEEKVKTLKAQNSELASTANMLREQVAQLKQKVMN; partner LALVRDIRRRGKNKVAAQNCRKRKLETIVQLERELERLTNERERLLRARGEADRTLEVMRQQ
`N42K` gave a binding fitness of -1.45 natural log.
`K36L` gave a binding fitness of -1.51 natural log.
The binding fitness of `I28T` is reported as -1.5 natural log.
`E32K` gave a binding fitness of -1.4 natural log.
`N42P` has a binding fitness of -1.53 natural log.
For `A57E`, the binding fitness was -1.5 natural log.
`E54F` gave a binding fitness of -1.51 natural log.
With `T37N` the binding fitness was -1.42 natural log.
`E44W` has a binding fitness of -1.39 natural log.
With `A40G` the binding fitness was -1.45 natural log.

Single results of other studies
The fold induction of `PhoQ, residues 284 288 289 292 302 303 TYGVAM` is reported as 4.33 (PhoP, residues 12 14 15 18 19 QWHVF (Escherichia coli, UniProt P23836); Sort-seq, item: YFP reporter; E. coli; PhoQ-PhoP variant library, together with: 10 µM Mg2+; reference: high Mg2+ state, higher = stronger signaling).

Excerpt of the above (study 2):
`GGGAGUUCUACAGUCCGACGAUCAAGUCCUGUGCUACACAUCGUAUGUACCGAAUCGGAAAAAGGAAAGGAAAAAAAGGAAAGUAUUAUGUUACGCCGUUCGGAUCUGCACUUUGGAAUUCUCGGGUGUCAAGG` gave a log2 enrichment of -1.87.
With `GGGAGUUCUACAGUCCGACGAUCCACAGACAACACGCACCCACACAGACACAGAGGGAAGGGUUUGGGAUGGGGACAGGGUGCACAGCAGGGCGGGGUAGGACCCCAGCCCCUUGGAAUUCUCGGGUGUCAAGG` the log2 enrichment was -0.471.
The log2 enrichment of `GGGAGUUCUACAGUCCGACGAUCAGUCCUGUGCUACACAUCGUAUGUACCGAAUCAAACCCCCAAACCCAAAUUUUUAAAAAAGUAUUAUGUUACGCCGUUCGGAUCUGCACUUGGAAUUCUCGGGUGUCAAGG` is reported as -0.868.
`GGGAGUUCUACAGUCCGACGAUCUCCUGUGCUACACAUCGUAUGUACCGAAUCGGGGUUUGGGGUUUUUUUGGGGAAAGGGGAAAGUAUUAUGUUACGCCGUUCGGAUCUGCAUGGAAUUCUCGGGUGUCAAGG` gave a log2 enrichment of 2.36.
`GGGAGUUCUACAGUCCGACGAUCCAAGUCCUGUGCUACACAUCGUAUGUACCGAAUCGGGCCGGGGCCGGGGCCGGGGAAAGUAUUAUGUUACGCCGUUCGGAUCUGCACUUCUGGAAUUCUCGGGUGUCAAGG` gave a log2 enrichment of -1.04.
`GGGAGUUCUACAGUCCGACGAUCGCAGGAAGUAAAAACAAAUGGAAAUGCUUCGGAUAGUGGCAGGGGUGGGGGUUGCUAAGGAAAGGGUGGGAUGGUAGUGGGUAAAGAGUUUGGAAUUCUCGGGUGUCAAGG` gave a log2 enrichment of 1.09.
